Measured values from different studies.
Each line is one published result; not all experiments were run side by side. Values joined by “and” are separate records of one study, mostly repeats; a detail may differ. ± gives the spread as reported. ≈ marks a conversion by molar mass, not a printed value.

CC(=O)O[C@H]1C(=O)[C@@]2(C)[C@H]([C@H](OC(=O)c3ccccc3)[C@]3(O)C[C@H](OC(=O)[C@H](O)[C@@H](NC(=O)c4ccccc4)c4ccccc4)C(C)=C1C3(C)C)[C@]1(OC(C)=O)CO[C@@H]1C[C@@H]2O
AST (BALB/c mouse, serum; intraperitoneal, 10 mg/kg every three days, 60 days): 4.42 mmol/L and 6.06 mmol/L and 8.33 mmol/L

CN[C@@](C)(C[18F])C(=O)O
tracer uptake (mouse, pancreas; 1 h, tumour-bearing): 34 %ID/g

ClC=C(Cl)Cl
A2 coefficient (human, exhaled alveolar breath; inhalation, 100 ppmv for 4 h): 6.47 µg/L and 5.96 µg/L and 4.32 µg/L and 10.1 µg/L

CN(C)CCCC1(c2ccc(F)cc2)OCc2cc(C#N)ccc21 (stereo not drawn)
Km (N-demethylation, substrate; Beagle dog liver microsomes; 1 h, pH 7.4, low-affinity component): ≥ 848 µM

[123I]c1cncc(OC[C@@H]2CCN2)c1
tissue/plasma ratio (SPECT; human, high plasma nicotine, cortex; intravenous, dose not given; reference: plasma): 13

O=c1[nH]c(Cc2ccccn2)nc2c1cnn2C1CCOCC1
AUC(0-inf) (healthy men, extensive metabolizers, plasma; oral, 100 mg single dose, tablet, geometric mean): 1.46 µM·h

CC(C)C[C@H](NC(=O)[C@H](CC(=O)O)NC(=O)CNC(=O)[C@H](CCCNC(=N)N)NC(=O)[C@H](CC(C)C)NC(=O)[C@H](CC(N)=O)NC(=O)[C@@H]1CCCN1C(=O)[C@@H](NC(=O)[C@H](C)NC(=O)[C@H](CC(N)=O)NC(=O)CCOCCOCCOCCOCCOCCOCCOCCOCCOCCOCCOCCOCCOCCOCCOCCOCCOCCOCCOCCOCCOCCOCCOCCOCCOCCOCCOCCOCCNC(=O)CN1CCN(CC(=O)O)CCN(CC(=O)O)CC1)C(C)C)C(=O)N[C@@H](CCC(N)=O)C(=O)N[C@H](C(=O)N[C@@H](CC(C)C)C(=O)N[C@@H](C)C(=O)N[C@@H](CCC(N)=O)C(=O)N[C@@H](CCCNC(=N)N)C(=O)N[C@H](C(=O)N[C@@H](C)C(=O)N[C@@H](CCCNC(=N)N)C(=O)N[C@H](C(=O)NCCOCCOCCOCCOCCOCCOCCOCCOCCOCCOCCOCCOCCOCCOCCOCCOCCOCCOCCOCCOCCOCCOCCOCCOCCOCCOCCOCCOCCC(N)=O)[C@@H](C)O)C(C)C)C(C)C [fluorine-18 labelled]
tissue uptake (biodistribution, radioactivity; female athymic nude mice, DX3puroβ6/DX3puro xenografts, kidney; intravenous, 0.175 nmol, 1 h): 39 ± 10 %ID/g

NC(=O)c1nc(F)c[nH]c1=O
solubility (UV-Vis spectrophotometry; supercritical CO2; 120 min, 328 K, 24 MPa, 801.92 kg/m^3): 1360 µg/mL (≈ 8.66 mM)

COc1ccc(C(CN(C)C)C2(O)CCCCC2)cc1 (stereo not drawn)
AUCtau (human, plasma; oral, 225 mg/day, day 15): 2900 ng·h/mL

CC[C@H](C)[C@H](NC(=O)[C@H](CC(C)C)NC(=O)[C@H](Cc1c[nH]c2ccccc12)NC(=O)[C@H](CCC(N)=O)NC(=O)[C@@H](NC(=O)[C@H](Cc1ccccc1)NC(=O)[C@H](C)NC(=O)[C@H](CCCCNC(=O)COCCOCCNC(=O)COCCOCCNC(=O)CC[C@H](NC(=O)CCCCCCCCCCCCCCCCCCC(=O)O)C(=O)O)NC(=O)[C@H](CCC(N)=O)NC(=O)[C@H](C)NC(=O)[C@@H](NC(=O)[C@H](CCCCN)NC(=O)[C@H](CC(=O)O)NC(=O)[C@H](CC(C)C)NC(=O)C(C)(C)NC(=O)[C@@H](NC(=O)[C@H](CO)NC(=O)[C@H](Cc1ccc(O)cc1)NC(=O)[C@H](CC(=O)O)NC(=O)[C@H](CO)NC(=O)[C@@H](NC(=O)[C@H](Cc1ccccc1)NC(=O)[C@@H](NC(=O)CNC(=O)[C@H](CCC(=O)O)NC(=O)C(C)(C)NC(=O)[C@@H](N)Cc1ccc(O)cc1)[C@@H](C)O)[C@@H](C)O)[C@@H](C)CC)[C@@H](C)CC)C(C)C)C(=O)N[C@@H](C)C(=O)NCC(=O)NCC(=O)N1CCC[C@H]1C(=O)N[C@@H](CO)C(=O)N[C@@H](CO)C(=O)NCC(=O)N[C@@H](C)C(=O)N1CCC[C@H]1C(=O)N1CCC[C@H]1C(=O)N1CCC[C@H]1C(=O)N[C@@H](CO)C(N)=O
CL/F (human, normal renal function, plasma; subcutaneous, 5 mg single dose, geometric mean): 1.03 mL/min

CC(=O)N[C@H](CCCCNC(=O)C(C)F)C(=O)N[C@@H](CS)C(=O)N[C@@H](CS)C(=O)N[C@@H](CCC(=O)O)C(=O)N[C@@H](Cc1c[nH]cn1)C(=O)N[C@H](Cc1ccccc1)C(=O)N[C@@H](CCCNC(=N)N)C(=O)N[C@@H](Cc1c[nH]c2ccccc12)C(=O)N[C@@H](CS)C(=O)N[C@@H](CCCNC(=N)N)C(=O)N1CCC[C@H]1C(=O)N[C@H](C(N)=O)C(C)C (stereo partly drawn) [fluorine-18 labelled]
tissue uptake (nude mice, A375M xenograft, lung; intravenous, 2 h): 0.68 ± 0.1 %ID/g

CC(=O)N[C@@H]1C(OC(C)=O)O[C@H](COC(C)=O)[C@@H](OC(C)=O)[C@@H]1OC(C)=O (stereo partly drawn)
serum stability time (sialic acid production; fetal bovine serum; with: 100% serum pre-incubation): ≥ 48 h

Excerpt of the above:
CC[C@H](C)[C@H](NC(=O)[C@H](CC(C)C)NC(=O)[C@H](Cc1c[nH]c2ccccc12)NC(=O)[C@H](CCC(N)=O)NC(=O)[C@@H](NC(=O)[C@H](Cc1ccccc1)NC(=O)[C@H](C)NC(=O)[C@H](CCCCNC(=O)COCCOCCNC(=O)COCCOCCNC(=O)CC[C@H](NC(=O)CCCCCCCCCCCCCCCCCCC(=O)O)C(=O)O)NC(=O)[C@H](CCC(N)=O)NC(=O)[C@H](C)NC(=O)[C@@H](NC(=O)[C@H](CCCCN)NC(=O)[C@H](CC(=O)O)NC(=O)[C@H](CC(C)C)NC(=O)C(C)(C)NC(=O)[C@@H](NC(=O)[C@H](CO)NC(=O)[C@H](Cc1ccc(O)cc1)NC(=O)[C@H](CC(=O)O)NC(=O)[C@H](CO)NC(=O)[C@@H](NC(=O)[C@H](Cc1ccccc1)NC(=O)[C@@H](NC(=O)CNC(=O)[C@H](CCC(=O)O)NC(=O)C(C)(C)NC(=O)[C@@H](N)Cc1ccc(O)cc1)[C@@H](C)O)[C@@H](C)O)[C@@H](C)CC)[C@@H](C)CC)C(C)C)C(=O)N[C@@H](C)C(=O)NCC(=O)NCC(=O)N1CCC[C@H]1C(=O)N[C@@H](CO)C(=O)N[C@@H](CO)C(=O)NCC(=O)N[C@@H](C)C(=O)N1CCC[C@H]1C(=O)N1CCC[C@H]1C(=O)N1CCC[C@H]1C(=O)N[C@@H](CO)C(N)=O
CL/F (human, normal renal function, plasma; subcutaneous, 5 mg single dose, geometric mean): 1.03 mL/min

CN(C)CCCC1(c2ccc(F)cc2)OCc2cc(C#N)ccc21 (stereo not drawn)
Km (N-demethylation, substrate; Beagle dog liver microsomes; 1 h, pH 7.4, low-affinity component): ≥ 848 µM
